Measurements of several laboratories.
Compare with care: the assays were run in different laboratories.
Target: Mitogen-activated protein kinase kinase kinase 3 (MAP3K3, Homo sapiens, UniProt Q99759)

Compound	effect on	mode	method	concentration	baseline	quantity	result
NC(=O)C[C@H]1CCc2sc3ncnc(O[C@H]4CC[C@H](N5CCOCC5)CC4)c3c21	enzyme activity	inhibitor		10 µM		inhibition	-4%
Cc1ccc(-c2c(/C=C(\C#N)C(=O)NC(C)C)n(CCCO)c3ncnc(N)c23)cc1	cell-free assay		competition with immobilised ligand	1 µM		remaining binding	99%
Nc1ncc2c(n1)-c1c([nH]c3ccc(C4=CCOCC4)cc13)CCC2	binding		competition with immobilised ligand	1 µM		remaining binding	100%
COc1c(Cl)cccc1Nc1c(-c2ccncc2C#C[C@@]2(C)CCCN2C(=O)/C=C/CN(C)C)[nH]c2c1C(=O)NCC2	binding		competition with immobilised ligand	3 µM		remaining binding	85%
CNC(=O)C1CCN(c2cc(C)c(F)cc2NC(=O)c2ccc(-c3cc(O)ccc3C)c(C)c2)CC1	binding		competition with immobilised ligand	1 µM		remaining binding	100%
Cc1cnc2nc1Nc1cccc(c1)COC/C=C/COCc1cc(ccc1OCCN1CCOCC1)N2	binding			0.1 µM		remaining binding	85%
Cc1cc(NC(=O)[C@H](O)c2cc(F)cc(F)c2)ccc1-c1cnc(N)c(C(=O)NC(C)C)c1	binding		competition with immobilised ligand	10 µM		remaining binding	30%
COc1cc(Nc2nccc(-c3cnn4nc(OC)ccc34)n2)cc(C(F)(F)F)c1	binding		competition with immobilised ligand	1 µM		remaining binding	82%
Nc1ncc(-c2cc(-c3cnn(CC(F)(F)F)c3)ncc2F)nc1C(=O)NC1CNCC(F)C1 (stereo not drawn)	enzyme activity			1 µM	DMSO control	remaining activity	96.8%
C=CC(=O)N1CCc2ccc(-n3c(=O)ccc4cnc5ccc(-c6cnn(C)c6)cc5c43)cc21			KINOMEscan	1 µM	DMSO control	remaining binding	98%
CC(C)=CC1OC(C)(C)C2C=C3C(=O)C(Cl)=CC(O)C3C3C(O)C4OC4C(=O)C132 (stereo not drawn)	cell-free assay		competition with immobilised ligand	10 µM		remaining binding	73%
CNC(=O)C[C@H](Cc1ccc(C#N)cc1)NC(=O)c1cc(-c2ccc(CN[C@H](C)c3ccc(C)cc3)o2)ccc1Cl	enzyme activity	inhibitor		1 µM		activity vs control	98%

Some of these lines once more:
Compound	effect on	mode	method	concentration	baseline	quantity	result
Cc1cnc2nc1Nc1cccc(c1)COC/C=C/COCc1cc(ccc1OCCN1CCOCC1)N2	binding			0.1 µM		remaining binding	85%
